Measured values from different studies.
Lines come from different studies, so protocols differ. Several values in a cell are separate wells, animals, samples, runs or records. Numbers after ± are the reported error.

`Oc1ccc(Br)cc1C=NCCN1CCOCC1` — result for “ferric reducing power”: 13.4% (FRAP; 80 µM).
`CC1=CC(=O)CC(C)(C)[C@@]1(O)/C=C/C(C)=C\C(=O)O` — result for “log2 fold change”: -2.34 (RNA-seq, refers to: AT1G03870; Arabidopsis thaliana Col seedlings; dose not given; baseline: DMSO).
`CC(=O)N[C@@H](CCCN)C(=O)O` — result for “log2 fold change”: -0.0335 (binding, MIDAS equilibrium dialysis LC-MS; A2AR-BRIL thermostabilized; concentration not given; baseline: no-protein control).
`O=C(COc1ccc(Cl)cc1)NC12CC(c3nnc([C@H]4C[C@@H](OC(F)(F)F)C4)o3)(C1)C2` — result for “ATF4 protein change”: -38.8% (healthy human, PBMC; oral, 45 mg single dose, day 2, 24 h post-dose, median, together with: sodium arsenite ex vivo; baseline: baseline).
`N#Cc1ccc2c(c1)[C@H]1CCCN(C(=O)c3ccc4[nH]cnc4c3)[C@H]1C2` — result for “fasting plasma glucose”: 136 mg/dL (T2DM patients with overweight or obesity, plasma; oral, 80 mg, day 15 (360 h), multiple dosing, mean).
For `CC(=O)Oc1cc2c(s1)CCN(C(C(=O)C1CC1)c1ccccc1F)C2` (centres unmarked), the inhibition was 23.1 ± 19.3% (platelet aggregation, light transmission aggregometry; human patients, platelet-rich plasma; dose not given, 4 to 6 h, together with: TRAP 15 µM).
`COc1cccc(C(=O)O)c1N`: “log2 fold change” -0.0505 (binding, MIDAS equilibrium dialysis LC-MS; A2AR-BRIL thermostabilized; concentration not given; baseline: no-protein control).
For `c1ccc(-c2n[nH]cc2-c2ccnc3ccccc23)nc1`, “log2 fold change” read 1.07 (kinase binding, competitor, MIB/MS competition, refers to: SSK2; Candida albicans cell lysate; 10 µM; baseline: DMSO).
`C=CCN(C)CCCCCCOc1ccc(C(=O)c2ccc(Br)cc2)c(F)c1` — result for “fold IC50 increase”: 21.7 fold (cell viability; Mut6 cells, mouse; together with: exogenous lanosterol; baseline: without lanosterol).
For `C[C@H](Oc1ccc(Br)cc1-c1ccon1)C(=O)O`, “difference from placebo” read -1.27% (muscle velocity recovery cycle; human, tibialis anterior muscle; 400 mg once daily, first response latency at 15 Hz, multiple ascending dose).
`O=C1O[C@H]([C@@H](O)CO)C(O)=C1O` — result for “DPPH radical scavenging”: 82.3% (1 mg/mL, 60 min).
`COc1ncc(-c2nc3c(n2C(C)C)[C@H](c2ccc(Cl)cc2)N(c2cc(Cl)cn(C)c2=O)C3=O)c(OC)n1` — result for “best overall response”: 0% (International Working Group criteria; human acute myeloid leukemia patients; oral, 350 to 400 mg, response CRi, high-dose, other doses).
`CC[C@H](C)[C@H](N)C(=O)O`: “log2 fold change” -0.114 (binding, MIDAS equilibrium dialysis LC-MS; A2AR-BRIL thermostabilized; concentration not given; baseline: no-protein control).
`C[C@@H](NC(=O)N1C(=O)[C@H](Cc2ccnc(N)c2)[C@H]1C(=O)O)C1CCCCC1` has an ACT AUEC of 124 (human; iv infusion, 0.6 mg/kg/h, 24 h, unit not given; baseline: baseline).
Under “log2 fold change”, `Cc1cn([C@H]2C[C@H](O)[C@@H](CO)O2)c(=O)[nH]c1=O` is recorded as -0.0926 (binding, MIDAS equilibrium dialysis LC-MS; A2AR-BRIL thermostabilized; concentration not given; baseline: no-protein control).
Under “DPPH radical scavenging”, `COc1ccc2c(c1)c(CC(=O)O)c(C)n2C(=O)c1ccc(Cl)cc1` is recorded as 24.6 ± 0.47% (DPPH; methanol; concentration not given, 60 min).
For `N#Cc1ccc2c(-c3ccncc3)c(-c3ccc(F)cc3)nn2c1`, “log2 fold change” read -0.18 (kinase binding, competitor, MIB/MS competition, refers to: RIM8; Candida albicans cell lysate; 100 nM; baseline: DMSO).
The k4 of `O=C(OC(C(F)(F)F)C(F)(F)F)N1CCN(Cc2cccc(Oc3ccccc3)c2)CC1` is reported as 0.24 min⁻¹ (PET blocking study; rhesus monkey, brain HIP; 0.3 mg/kg, compound pretreatment, together with: [18F]T-401 tracer).
The Aβ40 level of `Cc1cc([C@H]2C[C@H]3[C@@H](C)SC(N)=N[C@@]3(c3ccc(F)cc3F)CO2)on1` is reported as 1.61 ng/mL (refers to: Aβx-40; Mus musculus wild-type, cerebrospinal fluid; subcutaneous, 50 mg/kg, 18 h).
`O=C1CCc2ccc(OCCCCN3CCN(c4cccc(Cl)c4Cl)CC3)cc2N1` has a treatment discontinuation of 52% (stop or switch frequency; human patients, CYP2D6 ultrarapid metabolizers; dose not given, 12 months, genetic phenotype only).
The Met-enkephalin concentration of `O=C(O)CNC(=O)C(CS)Cc1ccccc1` (centres unmarked) is reported as 13300 pM and 12300 pM and 28500 pM and 8740 pM and 823 pM and 76700 pM and 11000 pM and 5470 pM (LC-MS/MS, refers to: extracellular Met-enkephalin; mouse striatal brain slices; 10 µM, 20 min, together with: 50 mM KCl).
Under “CD4+ effector T-cell change”, `NC(=O)c1cnc2[nH]ccc2c1N[C@@H]1[C@@H]2CC3C[C@H]1C[C@@](O)(C3)C2` is recorded as 0.02% (flow cytometry; Japanese healthy men, blood; oral, 100 mg twice daily, 72 h after day 7 dose; baseline: baseline).
`O=C(O)CNC(=O)Cc1ccccc1` has a sarcomere length of 1.63 µm (ventricular cardiomyocytes, C57BL/6 mouse; dose not given, 0.172 s).
`CCCCCN1C[C@H](O)[C@@H](O)[C@H](O)[C@@H]1CO` — result for “genomic disease score”: 0.32 (RNA sequencing, refers to: Hallmark interferon alpha genes; Hexb-/- mouse, hippocampus; 30 mg/kg/day; direction not given).
`CO[C@H]1CC[C@H](N2C(=O)CNc3ncc(-c4ccc(C(C)(C)O)nc4)nc32)CC1`: “pS6RP change from baseline” -63.5% (flow cytometry; stimulated B cells, human, blood; 30 mg single dose, 5 h, median; baseline: baseline).
For `O=P(O)(O)C(Cl)(Cl)P(=O)(O)O`, the VCAM-1 level was 3.64 MFI and 1.56 MFI and 2.98 MFI and 2.24 MFI (endothelial activation, immunostaining; mouse, SAH model, cortical capillaries; dose not given).
For `NCC(=O)Nc1cncc(-c2nn3c(=O)cc(N4CCNCC4)nc3s2)c1`, “inhibition of platelet aggregation” read 13.4% (ADP-induced platelet aggregation, light transmission aggregometry; human stable CAD patients on aspirin, platelets ex vivo; 0.05 mg/kg, 120 min post dose, together with: 20 µM ADP; baseline: placebo difference).
The HDL-C of `CC(C)c1c(C(=O)Nc2ccccc2)c(-c2ccccc2)c(-c2ccc(F)cc2)n1CC[C@@H](O)C[C@@H](O)CC(=O)O` is reported as 46.4 mg/dL (cynomolgus monkey, male, serum; 40 mg/kg or 25 mg/kg, day 86, 2064 h).
`Oc1ccc([C@@H]2Oc3ccc(O)cc3[C@@H]3CCC[C@@H]32)cc1`: “picrosirius red reduction” 17% (mouse, male, CCl4 liver fibrosis; oral, 5 mg/kg daily).
The Aβ42 level of `Cn1cc([C@H]2C[C@H]3CSC(N)=N[C@@]3(c3ccc(F)cc3F)CO2)cn1` is reported as 0.59 ng/g (refers to: Aβx-42; Mus musculus wild-type, brain; subcutaneous, 10 mg/kg, 9 h).
`CC(C)(C)c1sc2ncnc(Oc3c(F)cccc3OC(F)(F)F)c2c1-c1ccc(Cl)cc1` gave an antihyperalgesia of 98% (paw withdrawal latency; MrgprX1 mice, CCI model; oral, 10 mg/kg, 2 h, day 14 post-CCI, heat hyperalgesia).
`N#Cc1ccn2c(-c3ccncc3)c(-c3ccc(F)cc3)nc2c1` — result for “log2 fold change”: -0.419 (kinase binding, competitor, MIB/MS competition, refers to: HRR25; Candida albicans cell lysate; 1 µM; baseline: DMSO).
`CCOCc1nc(O)c(-c2nnc(Cc3ccc(Cl)cn3)o2)c(O)c1-c1c(OC)cccc1OC`: “stroke volume change” 35% (renal hypertensive rat; po, 1 mg/kg twice daily, peak exposure; baseline: vehicle).
`Cc1n[nH]c2ccc(-c3cc(OC[C@@H](N)Cc4ccccc4)cnc3-c3ccoc3)cc12` — result for “log2 fold change”: -0.114 (kinase binding, competitor, MIB/MS competition, refers to: HRR25; Candida albicans cell lysate; 1 µM; baseline: DMSO).
Under “pathway activation z-score”, `Cn1cc(Nc2nccc(-c3ccc4c(c3)CN(C3COC3)CC[C@H]4NC(=O)c3cn(C(C)(C)C)nn3)n2)cn1` is recorded as 2.45 (refers to: Ethanol Degradation IV; splenic B cells, Mus musculus; 30 mg/kg, together with: IgD activation; baseline: vehicle, direction not given).
`N#CC[C@H](C1CCCC1)n1cc(-c2ncnc3[nH]ccc23)cn1`: “plasma TNF-alpha difference” -0.67 (mouse, human PBMC GvHD model, plasma; 50 mg/kg once daily, unit not given; baseline: vehicle).
Under “TLR4 expression reduction”, `CCOC(=O)C1=CCCC[C@H]1S(=O)(=O)Nc1ccc(F)cc1Cl` is recorded as 31% (flow cytometry; mouse, acute lung injury, lung; dose not given).
`COc1cc(Nc2ncc3c(n2)-c2ccc(Cl)cc2C(c2c(F)cccc2OC)=NC3)ccc1C(=O)O`: “median response score” 10 (mouse, KT-10 Wilms tumour xenograft; 20.8 mg/kg; direction not given).
`Nc1ccn([C@@H]2O[C@H](CO)[C@@H](O)[C@H]2O)c(=O)n1`: “log2 fold change” -0.182 (binding, MIDAS equilibrium dialysis LC-MS; A2AR-BRIL thermostabilized; concentration not given; baseline: no-protein control).
Under “best overall response CR”, `Cc1cc(C)c(CNC(=O)c2cc(Cl)c3c(c2C)O[C@@](C)([C@H]2CC[C@H](N(C)C)CC2)O3)c(=O)[nH]1` is recorded as 45% (IWG 2007 criteria; human, relapsed/refractory angioimmunoblastic T-cell lymphoma; dose not given).
Under “log2 fold change”, `Nc1ccn([C@H]2C[C@H](O)[C@@H](COP(=O)(O)OP(=O)(O)O)O2)c(=O)n1` is recorded as -0.626 (binding, MIDAS equilibrium dialysis LC-MS; A2AR-BRIL thermostabilized; concentration not given; baseline: no-protein control).
`OC(CCN1CCCCC1)(c1ccccc1)C1CC2C=CC1C2` (centres unmarked): “EEG Beta2-power Pz-O2” 0.9 µV² (resting-state EEG; healthy elderly humans; oral, 4 mg, eyes open, LS mean).
Under plasma AST, `[2H][C@]1(Cc2ccc(OCCc3ccc(CC)cn3)cc2)SC(=O)NC1=O` is recorded as “decreased” (C57BL/6J mouse, choline-deficient diet; dose not given).
`CC(C)NCC(O)c1ccc(O)c(O)c1` (centres unmarked) has a sarcomere length of 1.58 µm (ventricular cardiomyocytes, C57BL/6 mouse; dose not given, 0.576 s).
With `Cc1cc([C@H]2C[C@H]3[C@@H](CF)SC(N)=N[C@@]3(c3ccc(F)cc3F)CO2)on1` the Aβ40 level was 0.52 ng/mL (refers to: Aβx-40; Mus musculus wild-type, cerebrospinal fluid; subcutaneous, 30 mg/kg, 5 h).
`C[C@H]1C[C@H]2CSC(N)=N[C@@]2(c2nc(NC(=O)c3ccc(OC(F)F)cn3)cs2)CO1`: “percent change from baseline” -18% (refers to: Aβx-40; healthy adults, plasma; 3 mg single dose, 48 h post-dose; baseline: placebo).
`CC[C@@H]1[C@H](F)C(=O)N[C@@H]1COc1nccc2cc(C(N)=O)c(OC)cc12` has an inhibition of -3.8% (ATP-site probe binding, ActivX profiling, refers to: MST4, YSK1; THP-1 cell lysate; 0.04 mM, Lys2 site).
For `FC(F)(F)Oc1cccc(-c2cnc3ccc(-c4ccncc4)nn23)c1`, the tumour size was 0.0688 a.u. and 0.036 a.u. and 0.108 a.u. and 0.032 a.u. (MDA-MB-231 xenograft, NSG mouse; oral, 10 mg/kg daily, day 5; higher = larger tumour).
With `Cc1coc([C@H]2C[C@H]3[C@@H](CF)SC(N)=N[C@@]3(c3ccc(F)cc3F)CO2)n1` the Aβ40 level was 1.62 ng/mL (refers to: Aβx-40; Mus musculus wild-type, cerebrospinal fluid; subcutaneous, 80 mg/kg, 9 h).
`Cn1ccc(=O)c(C(N)=O)c1`: “log2 fold change” -0.176 (binding, MIDAS equilibrium dialysis LC-MS; A2AR-BRIL thermostabilized; concentration not given; baseline: no-protein control).
For `CN[C@@H]1COc2c(S(=O)(=O)NC(=O)Nc3c4c(cc5c3CCC5)CCC4)cnn2C1`, the inhibition was 99.2% (refers to: IL-18; human participants, whole blood ex vivo; 1800 mg single dose, 8 h, IL-18, circulating, adjusted for, together with: LPS/ATP; baseline: baseline).
`O=c1ccn([C@H]2C[C@H](O)[C@@H](COP(=O)(O)OP(=O)(O)OP(=O)(O)O)O2)c(=O)[nH]1`: “log2 fold change” -0.924 (binding, MIDAS equilibrium dialysis LC-MS; A2AR-BRIL thermostabilized; concentration not given; baseline: no-protein control).
`C=CCn1c(=O)c2cnc(Nc3ccc(N4CCN(C)CC4)cc3)nc2n1-c1ccc2c(n1)[C@@](O)(CC)CC2`: “tumour growth inhibition” 99.8% (OVCAR-3 xenograft, NOD/SCID mouse; 90 mg/kg once daily, :2).

Excerpt of the above:
Under “CD4+ effector T-cell change”, `NC(=O)c1cnc2[nH]ccc2c1N[C@@H]1[C@@H]2CC3C[C@H]1C[C@@](O)(C3)C2` is recorded as 0.02% (flow cytometry; Japanese healthy men, blood; oral, 100 mg twice daily, 72 h after day 7 dose; baseline: baseline).
`O=C(O)CNC(=O)Cc1ccccc1` has a sarcomere length of 1.63 µm (ventricular cardiomyocytes, C57BL/6 mouse; dose not given, 0.172 s).
`CCCCCN1C[C@H](O)[C@@H](O)[C@H](O)[C@@H]1CO` — result for “genomic disease score”: 0.32 (RNA sequencing, refers to: Hallmark interferon alpha genes; Hexb-/- mouse, hippocampus; 30 mg/kg/day; direction not given).
`CO[C@H]1CC[C@H](N2C(=O)CNc3ncc(-c4ccc(C(C)(C)O)nc4)nc32)CC1`: “pS6RP change from baseline” -63.5% (flow cytometry; stimulated B cells, human, blood; 30 mg single dose, 5 h, median; baseline: baseline).
For `O=P(O)(O)C(Cl)(Cl)P(=O)(O)O`, the VCAM-1 level was 3.64 MFI and 1.56 MFI and 2.98 MFI and 2.24 MFI (endothelial activation, immunostaining; mouse, SAH model, cortical capillaries; dose not given).
For `NCC(=O)Nc1cncc(-c2nn3c(=O)cc(N4CCNCC4)nc3s2)c1`, “inhibition of platelet aggregation” read 13.4% (ADP-induced platelet aggregation, light transmission aggregometry; human stable CAD patients on aspirin, platelets ex vivo; 0.05 mg/kg, 120 min post dose, together with: 20 µM ADP; baseline: placebo difference).
